Experimental data from different studies.
Each line is one published result; not all experiments were run side by side. Several values in a cell are separate wells, animals, samples, runs or records. Numbers after ± are the reported error.

For Cn1cnc2c(F)c(Nc3ccc(Br)cc3Cl)c(C(=O)NOCCO)cc21, the AUC was 1560 ng·h/mL (ESRD on hemodialysis, plasma; oral, 50 mg single dose, dosed 1 h before dialysis).
The EC20 of Nc1nc2ncc(CNc3ccc(C(=O)N[C@@H](CCC(=O)O)C(=O)O)cc3)nc2c(=O)[nH]1 is reported as over 800 µM (mitochondrial swelling; BALB/cByJ female mouse liver mitochondria; 30 min, together with: succinate + rotenone; baseline: CaCl2 maximal swelling).
For CNCc1ccc(-c2[nH]c3cc(F)cc4c3c2CCNC4=O)cc1, the AUC(0-24 h) was 877 ng·h/mL (human cancer patients, plasma; intravenous, 8 mg/m2, day 1, together with: temozolomide 100).
For CC1=C(/C=C/C(C)=C/C=C/C(C)=C/C(=O)Nc2ccc(O)cc2)C(C)(C)CCC1, the Km was 23.9 µM (substrate, item: 4-oxo metabolite formation; pooled human liver microsomes; 60 min).
CCCCCCCCCCCCCCCCNC — result for “in vivo intrinsic clearance”: 10 mL/h/g liver (liver S9 substrate depletion; rainbow trout liver S9; six-surfactant mixture).
O=C(c1cccnc1-c1ccncc1)N1CCC(O)(Cc2ccccc2)CC1 gave a Vd/F of 1140 L (human, plasma; oral, 100 mg, multiple doses, once daily, healthy volunteers).
CCN1CCN(Cc2ccc(Nc3ncc(F)c(-c4cc(F)c5nc(C)n(C(C)C)c5c4)n3)nc2)CC1 gave a fraction absorbed of 45.8% (population PK model; human; oral).
`QTAEELLEV` — result for “random coil content”: 16.4% (far-UV CD; peptide, Tris-HCl buffer, 100 mM NaCl; pH 8.0, room temperature).
CCCCNC(=O)CN1CCN(CC(=O)[O-])CCN(CC(=O)[O-])CCN(CC(=O)[O-])CC1.[67Ga+3]: “intact radiolabelled complex” 96.1 ± 0.6% (RP-TLC; murine plasma; 3 h, 37 °C, 5% CO2).
Under “predose plasma concentration”, C[C@H](Oc1ccc(-c2nc(-c3ccc4[nH]cnc4c3)no2)cc1C(F)(F)F)C(F)(F)F.Cl is recorded as 7.4 ± 1.2 nM (cynomolgus monkey aneurysm model, plasma; 0.1 mg/kg once daily, 2 weeks dosing).
For CC1(C)S[C@@H]2[C@H](NC(=O)[C@H](N)c3ccc(O)cc3)C(=O)N2[C@H]1C(=O)O, the EC20 was over 400 µM (cytochrome c release, ELISA; BALB/cByJ female mouse liver mitochondria; 30 min; baseline: alamethicin maximal release).
With CC[C@@H]1C(=O)N(C)c2cnc(Nc3ccc(C(=O)N[C@H]4CC[C@H](N5CCN(CC6CC6)CC5)CC4)cc3OC)nc2N1C(C)C the Vss was 4720 L (non-compartmental analysis; human, plasma; intravenous infusion, 400 mg (first infusion)).
The t1/2 of CNC(=O)c1cc(Oc2ccc(NC(=O)Nc3ccc(Cl)c(C(F)(F)F)c3)cc2)ccn1 is reported as 28.4 ± 9.86 h (LC-MS/MS; nude mouse subcutaneous tumour model, tumour tissue; intratumoral, 2 mg/kg, PDC 3 control).
CC(=O)c1ccc(Cn2cc(COc3cc(-n4nc(C(C)(C)C)oc4=O)c(Cl)cc3Cl)nn2)cc1 has an IC50 of < 2.5 µM and 1.9 µM (Toxoplasma gondii; intracellular parasite growth, luminescence; HFF, wild type, NanoLuc reporter; 96 h).
With O=C(Cc1cccc(OC(F)(F)F)c1)Nc1ccc(CCCCc2nnc(NC(=O)Cc3ccccn3)s2)nn1 the AUC(0-8h) was 2150 ng·h/mL (human patients, plasma; oral, 100 mg three times daily fasted, cycle 1 day 15 steady state).
O=C(/C=C/c1ccc(O)c(O)c1)c1ccc(O)cc1O has an EC20 of over 200 µM (cytochrome c release, ELISA; BALB/cByJ female mouse liver mitochondria; 30 min; baseline: alamethicin maximal release).
COc1cc(/C=C/C(=O)CC(=O)/C=C/c2ccc(O)c(OC)c2)ccc1O — result for “brain uptake ratio”: 2.11 (I-125 label; C57BL/6J mouse, cerebellum; intranasal vs intraperitoneal, 10 µg/mouse IN, 100 µg/mouse IP, 24 h; baseline: intranasal over intraperitoneal).
For CCN(CC)CC(=O)Nc1c(C)cccc1C, the EC20 was over 800 µM (cytochrome c release, ELISA; BALB/cByJ female mouse liver mitochondria; 30 min; baseline: alamethicin maximal release).
CCCC[C@@H]1NC(=O)[C@@H](NC(=O)[C@H](CCC(=O)O)NC(=O)CNC(=O)CN2CCN(CC(=O)O)CCN(CC(=O)O)CCN(CC(=O)O)CC2)CCCCNC(=O)C[C@@H](C(N)=O)NC(=O)[C@H](C(C)C)NC(=O)[C@@H]2CCCN2C(=O)[C@H](CCCNC(=N)N)NC(=O)CNC(=O)[C@H](Cc2c[nH]c3ccccc23)NC(=O)[C@H](CCCNC(=N)N)NC(=O)[C@@H](Cc2ccccc2)NC(=O)[C@H](Cc2c[nH]cn2)NC(=O)[C@H](CCC(=O)O)NC1=O [indium-111 labelled] gave a tissue uptake of 0.06 ± 0.03 %ID/g (C57 mice, B16/F10 lung metastatic melanoma, skin; intravenous, 0.037 MBq, 24 h).
With O=C(O)c1cccc(O)c1 the mean concentration was 367 ± 292 nM (human, fasted baseline, cerebrospinal fluid).
Under “serum concentration increase”, C[C@H]1O[C@@H](O[C@H]2[C@@H](O)C[C@H](O[C@H]3[C@@H](O)C[C@H](O[C@H]4CC[C@@]5(C)[C@H](CC[C@@H]6[C@@H]5C[C@@H](O)[C@]5(C)[C@@H](C7=CC(=O)OC7)CC[C@]65O)C4)O[C@@H]3C)O[C@@H]2C)C[C@H](O)[C@@H]1O is recorded as 20 to 60% (patients, serum; oral, dose not given, together with: P-gp inhibitors; baseline: without P-gp inhibitors).
CC(C)[C@H](NC(=O)[C@@H]1CCCN1C(=O)[C@H](CCCNC(=N)N)NC(=O)[C@H](CS)NC(=O)[C@H](Cc1c[nH]c2ccccc12)NC(=O)[C@H](CCCNC(=N)N)NC(=O)[C@@H](Cc1ccccc1)NC(=O)[C@H](Cc1c[nH]cn1)NC(=O)[C@H](CCC(=O)O)NC(=O)[C@H](CS)NC(=O)[C@H](CS)NC(=O)[C@H](CCCCN)NC(=O)[C@@H]1CC(=O)N[C@@H](CCCNC(=N)N)C(=O)N[C@@H](C)C(=O)N[C@@H](CC(=O)O)C(=O)N[C@H](Cc2ccc(O)cc2)C(=O)N1)C(N)=O [technetium-99m labelled] gave a tissue uptake of 2.15 ± 0.25 %ID (C57 mice, intestines; iv, 0.037 MBq, 0.5 h).
O=C(O)CCCCCCC(=O)O — result for “free concentration ratio”: 30 (human hemodialysis patients, plasma ultrafiltrate; pre-treatment; baseline: hemodialysis over normal subjects).
CCNC(=O)[C@@H]1CCCN1C(=O)[C@H](CCCNC(=N)N)NC(=O)[C@H](CC(C)C)NC(=O)[C@@H](CC(C)C)NC(=O)[C@H](Cc1ccc(O)cc1)NC(=O)[C@H](CO)NC(=O)[C@H](Cc1c[nH]c2ccccc12)NC(=O)[C@H](Cc1c[nH]cn1)NC(=O)[C@@H]1CCC(=O)N1 gave a permeated fraction of 17.8% (membrane in isopropyl myristate; 0.5 mg/mL, 12 h, pH 6.8, 37 °C, receiver 0.5% Tween 80).
C[C@@H]1C[C@H]2[C@@H]3CCC4=CC(=O)C=C[C@]4(C)[C@@]3(F)[C@@H](O)C[C@]2(C)[C@@]1(O)C(=O)CO gave an EC20 of over 200 µM (cytochrome c release, ELISA; BALB/cByJ female mouse liver mitochondria; 30 min; baseline: alamethicin maximal release).
COc1ccc(-c2nc3ccccc3s2)cc1OCc1nnc(-c2ccc(Cl)cc2)o1 — result for “minimal effective dose”: 100 mg/kg (seizure protection; albino mouse, scPTZ-induced seizure; ip, 0.5 h).
For O=C(NC[C@H]1CN(c2ccc(N3CCOCC3=O)cc2)C(=O)O1)c1ccc(Cl)s1, “apparent volume Vz/F” read 23 ± 4.81 L/kg (Sprague-Dawley rat, male, plasma; oral, 10 mg/kg).
CC(C)[C@H](NC(=O)[C@@H]1CCCN1C(=O)[C@H](CCCNC(=N)N)NC(=O)[C@H](CS)NC(=O)[C@H](Cc1c[nH]c2ccccc12)NC(=O)[C@H](CCCNC(=N)N)NC(=O)[C@@H](Cc1ccccc1)NC(=O)[C@H](Cc1c[nH]cn1)NC(=O)[C@H](CCC(=O)O)NC(=O)[C@H](CS)NC(=O)[C@H](CS)NC(=O)[C@H](CCCCN)NC(=O)[C@@H]1CC(=O)N[C@@H](CCCNC(=N)N)C(=O)N[C@@H]([C@@H](C)O)C(=O)N[C@@H](CC(=O)O)C(=O)N[C@H](Cc2ccc(O)cc2)C(=O)N1)C(N)=O [technetium-99m labelled] has a tissue uptake of 0.5 ± 0.2 %ID/g (C57 mouse, female, B16/F1 melanoma, blood; intravenous, 2 h, together with: NDP-MSH 10 µg co-injected).
For O=C(O)Cc1ccccc1Nc1c(Cl)cccc1Cl, the EC20 was over 200 µM (cytochrome c release, ELISA; BALB/cByJ female mouse liver mitochondria; 30 min; baseline: alamethicin maximal release).
The AUC(0-inf) of C#C[C@]1(CO)O[C@@H](n2cnc3c(N)nc(F)nc32)C[C@@H]1O is reported as 4.3 µM·h (human, plasma; oral, 30 mg, single dose, fed).
With O=C(O)c1cccc(CN2CN(C3CCCCC3)C3(CCN(CCCC(=O)c4ccccc4)CC3)C2=O)c1 the rearing activity was 3 counts (rat Sprague Dawley female; 1000 mg/kg/day, 4 to 8 min after start, second session).
For Cn1c(-c2ccc(C(N)=O)cc2F)nnc1C(C)(C)Oc1c(F)cc(Cl)cc1F, the mean Cmax was 21.2 ng/mL (young non-Japanese humans, plasma; oral, 2 mg once daily, last day of 14 days).
OCCN1CCN(CCCN2c3ccccc3Sc3ccc(Cl)cc32)CC1: “log intrinsic permeability” -2.62 (in situ brain perfusion; rat; no efflux inhibition).
CC1=C2Cc3cc(ccc3O)C(=O)O[C@H](C(C)(C)Br)CC[C@](C)(O)[C@H](Br)CC[C@]2(C)[C@@H](Br)CC1 has an intrinsic clearance of 0.52 ± 0.06 mL/min/kg (human liver S9 fraction; 10 µM, 24 h, without UDPGA).
COc1cccc(-c2ccc(NC(=O)C3=C(C(=O)O)CCC3)c(F)c2)c1 has a Vd/F of 10.2 L (male human, plasma; oral, 20 mg, single dose, fasted, healthy volunteers).
COc1ccc(-c2nc3ccccc3s2)cc1OCc1nnc(-c2c(OC)cccc2OC)o1 — result for “minimal effective dose”: 100 mg/kg (hind limb tonic extension; albino mouse, MES-induced seizure; ip, 0.5 h).
CN(C)Cc1cc(OCCC[18F])ccc1Sc1ccccc1N has a tissue uptake of 0.16 ± 0.04 %ID/g (SERT; male Sprague Dawley rat, PCA-treated, cortex; intravenous, 60 min).
For C[C@@]12C[C@@]3(O)O[C@@H](O1)[C@]1(COC(=O)c4ccccc4)[C@H]3C[C@@]12O[C@@H]1O[C@H](CO)[C@@H](O)[C@H](O)[C@H]1O, the accuracy was 92.6 % nominal (rat plasma QC samples; 45.0 ng/mL, 45 days, -80 °C, long-term stability, low QC).
CCN(CC)CCNC(=O)c1c(C)[nH]c(/C=C2\C(=O)Nc3ccc(F)cc32)c1C: “median trough plasma concentration” 37.7 ng/mL (human, plasma; oral, 15 mg/m2, day 21).
For Cc1cccc(Cn2cc(COc3cc(-n4nc(C(C)(C)C)oc4=O)c(Cl)cc3Cl)nn2)c1, the IC50 was < 2.5 µM and 1.8 µM (Toxoplasma gondii; intracellular parasite growth, luminescence; HFF, wild type, NanoLuc reporter; 96 h).
For NCCCC[C@@H]1NC(=O)[C@@H](Cc2c[nH]c3ccccc23)NC(=O)[C@H](c2ccccc2)NC(=O)[C@@H]2C[C@@H](OC(=O)NCCN)CN2C(=O)[C@H](Cc2ccccc2)NC(=O)[C@H](Cc2ccc(OCc3ccccc3)cc2)NC1=O, the alpha half-life was 2.6 ± 1.4 h (radioimmunoassay; healthy human male volunteers, plasma; subcutaneous, 2.5 µg).
With Cc1nc2cccc(OCC(C)(C)C(=O)NC(C)C)c2c(N)c1C(=O)O the Tmax was 3 h (male Sprague-Dawley rat, plasma; dietary, 100 mg/kg/day, day 90).
COc1cccc2c1C(=O)c1c(O)c3c(c(O)c1C2=O)C[C@@](O)(C(=O)CO)C[C@@H]3O[C@H]1C[C@H](NC(=O)[C@@H]2CCCN2C(=O)CN)[C@H](O)[C@H](C)O1 gave a Tmax of 0.0833 h (mouse, E0771 tumour-bearing, heart; intravenous, 92 µmol/kg PhAc-ALGP-Dox).
